Measured values collected from several papers.
A part holds a random share of what one study measured.

Set 1 — method: protein binding microarray; form: double-stranded DNA, one strand shown; medium: in vitro; tested at: not given; reference: not given; direction: higher = stronger binding
Target: Histone acetyltransferase KAT6A, winged helix 2, GST fusion (KAT6A, Homo sapiens, UniProt Q92794, residues 85-181)
Notes: 8-mer, flanks averaged, mean of 2 arrays, mostly near background
Construct (chain): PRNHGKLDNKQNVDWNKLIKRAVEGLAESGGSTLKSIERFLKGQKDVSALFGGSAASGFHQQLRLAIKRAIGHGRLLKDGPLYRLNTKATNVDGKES
Sequence | E-score
GTTTGACA | 0.0446
ACCCCGGG | 0.14
GAGGTTTA | 0.0933
CGTAATAC | 0.0199
CATCATGA | -0.105
CCTAAGTA | -0.0655
GTCGGATA | -0.0251
CGTAAACG | -0.086
TCAAGTCA | -0.127
ATGCCGGC | 0.248
GGCAGAGA | 0.0833
AGTTGTTC | -0.174
ACGAAATG | 0.0696
CAAGTTTA | -0.00839
GCGATTTA | -0.0586
GCAATGTA | -0.12
CTCGCCTC | 0.102
ACAGAAAC | 0.0649
AAATGGCT | -0.222
ACTCAAAA | 0.0773
ACCCCGGA | 0.111
CATAATAA | -0.0469
AGGCATAT | 0.0451
CCCACTGA | 0.0453
CCTCTCTA | -0.107

Set 2 — method: universal PBM; form: double-stranded DNA, one strand shown; medium: in vitro; tested at: 600 nM; direction: higher = stronger binding
Target: Sal-like protein 4, full length isoform A (SALL4, Homo sapiens, UniProt Q9UJQ4, residues 1-1053)
Sequence of UniProt Q9UJQ4 (whole entry, looked up): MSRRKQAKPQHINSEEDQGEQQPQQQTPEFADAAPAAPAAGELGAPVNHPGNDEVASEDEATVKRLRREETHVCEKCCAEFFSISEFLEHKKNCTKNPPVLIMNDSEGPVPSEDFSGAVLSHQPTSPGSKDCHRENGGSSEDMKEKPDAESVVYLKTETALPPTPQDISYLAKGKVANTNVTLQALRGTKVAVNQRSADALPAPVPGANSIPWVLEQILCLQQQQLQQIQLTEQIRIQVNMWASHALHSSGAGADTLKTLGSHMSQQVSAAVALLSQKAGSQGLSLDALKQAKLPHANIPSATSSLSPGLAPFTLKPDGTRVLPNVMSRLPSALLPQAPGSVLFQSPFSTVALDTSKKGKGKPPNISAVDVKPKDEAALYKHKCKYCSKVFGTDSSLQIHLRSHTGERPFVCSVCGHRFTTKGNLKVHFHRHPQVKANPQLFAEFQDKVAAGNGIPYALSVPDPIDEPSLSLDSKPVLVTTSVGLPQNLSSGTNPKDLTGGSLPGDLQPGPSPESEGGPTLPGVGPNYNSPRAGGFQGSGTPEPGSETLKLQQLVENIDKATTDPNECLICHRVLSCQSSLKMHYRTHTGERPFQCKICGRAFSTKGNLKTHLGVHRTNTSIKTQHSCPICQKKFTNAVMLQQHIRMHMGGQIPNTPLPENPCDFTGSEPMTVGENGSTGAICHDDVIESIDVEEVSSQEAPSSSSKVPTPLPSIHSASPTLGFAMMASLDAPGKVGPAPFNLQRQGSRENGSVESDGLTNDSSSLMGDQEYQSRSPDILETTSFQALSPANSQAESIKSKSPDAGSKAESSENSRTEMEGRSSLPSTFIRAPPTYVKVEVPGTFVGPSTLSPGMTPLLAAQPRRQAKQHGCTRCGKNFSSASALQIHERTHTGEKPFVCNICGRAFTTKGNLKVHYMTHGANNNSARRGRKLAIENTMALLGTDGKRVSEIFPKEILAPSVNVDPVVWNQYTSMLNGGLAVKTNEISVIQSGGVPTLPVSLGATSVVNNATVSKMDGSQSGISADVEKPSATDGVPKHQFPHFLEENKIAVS
Notes: 8-mer, flanks averaged, mean of replicates
Sequence | E-score
GCCTGCTA | -0.113
CCGGTACA | -0.101
ACGGGGGC | -0.398
TCCACCGA | -0.19
ATATGCTG | 0.153
CTGCCAAG | -0.113
AAGATCCT | 0.118
GAACTCAC | 0.00948
GATCACCC | -0.201
AACTTGCT | 0.0524
ATTCTTTG | 0.259
AGTTGCAG | -0.0419
ACAGGTCC | -0.193
AGTTTTCC | 0.0341
TCCGCCCA | -0.247
CTAAGTAC | 0.08
CTTGGATC | -0.0848
GCGATAAA | 0.0218
CGCCTTCA | -0.122
CCGGTTCA | -0.202
AGTTGGGA | -0.132
CGTCAACG | -0.104

Set 3 — method: RNA Bind-n-Seq; form: RNA; medium: in vitro; tested at: 200 nM; notes: whole 134-nt RNA, ends assumed; added: 150 mM LiCl; reference: input library; direction: higher = stronger binding; all molecules: 7-deaza-guanosine replaces G
Target: Ras GTPase-activating protein-binding protein 1, full length (G3BP1, Homo sapiens, UniProt Q13283)
Sequence of UniProt Q13283 (whole entry, looked up): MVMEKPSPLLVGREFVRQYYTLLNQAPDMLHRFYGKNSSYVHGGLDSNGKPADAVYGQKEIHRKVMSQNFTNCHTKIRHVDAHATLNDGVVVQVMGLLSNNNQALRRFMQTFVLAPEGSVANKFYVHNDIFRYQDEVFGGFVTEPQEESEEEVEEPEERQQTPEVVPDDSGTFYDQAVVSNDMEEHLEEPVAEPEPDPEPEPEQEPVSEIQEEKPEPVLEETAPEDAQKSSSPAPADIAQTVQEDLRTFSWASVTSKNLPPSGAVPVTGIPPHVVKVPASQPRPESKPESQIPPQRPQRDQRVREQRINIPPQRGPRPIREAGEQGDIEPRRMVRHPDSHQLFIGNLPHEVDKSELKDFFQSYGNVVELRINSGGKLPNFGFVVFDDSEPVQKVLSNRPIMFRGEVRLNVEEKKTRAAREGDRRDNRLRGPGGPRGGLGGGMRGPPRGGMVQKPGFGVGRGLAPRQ
Sequence | log2 enrichment
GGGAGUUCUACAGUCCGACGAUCUCAAGUCCUGUGCUACACAUCGUAUGUACCGAAUCGGGUGGGAGGGUUUUUGGGAAAGUAUUAUGUUACGCCGUUCGGAUCUGCACUUCCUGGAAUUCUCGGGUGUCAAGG | -0.627
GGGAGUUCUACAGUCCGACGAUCGGUUUCUGGUGAGCUUCAUGGUUGACGCCCGGGGUGGUUCCAUGAGAGGAAGUCGCCACAACGGCCUGCGAGUGGUGAUCCCGCCACGGAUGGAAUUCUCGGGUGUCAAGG | -3.97
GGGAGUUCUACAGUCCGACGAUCUCCUGUGCUACACAUCGUAUGUACCGAAUCGGGAAAAAAAGGGAAAGGGAAAAAAAGGGAAAGUAUUAUGUUACGCCGUUCGGAUCUGCAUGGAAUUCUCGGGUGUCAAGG | 0.443
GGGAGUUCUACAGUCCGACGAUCCAAGUCCUGUGCUACACAUCGUAUGUACCGAAUCGGGAGGGUGGGAAAAAAAGGGAAAGUAUUAUGUUACGCCGUUCGGAUCUGCACUUCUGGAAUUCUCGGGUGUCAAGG | 0.169
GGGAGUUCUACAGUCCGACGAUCUCCUGUGCUACACAUCGUAUGUACCGAAUCGGAAAAAAGGAAAAAAGGGGAAAAAAGGGAAAGUAUUAUGUUACGCCGUUCGGAUCUGCAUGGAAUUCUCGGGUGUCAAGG | -0.532
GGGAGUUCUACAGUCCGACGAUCAAGUCCUGUGCUACACAUCGUAUGUACCGAAUCGGGGCCCCGGGCCCCGGCCCCGGAAAGUAUUAUGUUACGCCGUUCGGAUCUGCACUUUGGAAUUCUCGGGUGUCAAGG | -2.43
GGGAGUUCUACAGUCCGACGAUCUCCUCAAGUCCUGUGCUACACAUCGUAUGUACCGAAUCGGGGCGGCGGGCGGAAAGUAUUAUGUUACGCCGUUCGGAUCUGCACUUCCAGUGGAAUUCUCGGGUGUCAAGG | 0.248
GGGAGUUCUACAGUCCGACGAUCCUCAAGUCCUGUGCUACACAUCGUAUGUACCGAAUCGGGUGGGUGGGGUGGGGAAAGUAUUAUGUUACGCCGUUCGGAUCUGCACUUCCAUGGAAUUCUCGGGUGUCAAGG | -1.02
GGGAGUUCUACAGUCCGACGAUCACCAUGCAGGUGGGCAAAUUUGGGAAGUGGGGCAAGGGGGGGAUAGGGAGGGGGGUAACACUUUGGGAACAGGUGGUCCCAGGUCGUUUCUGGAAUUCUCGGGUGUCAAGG | 0.112
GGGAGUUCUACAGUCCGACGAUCUAGGGUUCAGGAUAAGUUUGAGGUGCUGAAUUACACAAGCAUUCCUAUCUUUCUCCCGGAAGUCACCAUUGGAGCUCAUCAGACUGACCGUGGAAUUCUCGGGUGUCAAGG | -0.349
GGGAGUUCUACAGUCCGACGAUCUCAAGUCCUGUGCUACACAUCGUAUGUACCGAAUCGGGAGGGAGGGUUUUUGGGAAAGUAUUAUGUUACGCCGUUCGGAUCUGCACUUCCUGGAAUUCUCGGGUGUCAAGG | 0.356

Set 4 — method: RNA Bind-n-Seq; form: RNA; medium: in vitro; tested at: not given; notes: 4-mer, random 30-nt RNA, single round; added: RocA, ADP, phosphate; reference: input library; direction: higher = stronger binding
Target: Eukaryotic initiation factor 4A-I (EIF4A1, Homo sapiens, UniProt P60842, residues 1-406, full length assumed)
Sequence of UniProt P60842 (whole entry, looked up): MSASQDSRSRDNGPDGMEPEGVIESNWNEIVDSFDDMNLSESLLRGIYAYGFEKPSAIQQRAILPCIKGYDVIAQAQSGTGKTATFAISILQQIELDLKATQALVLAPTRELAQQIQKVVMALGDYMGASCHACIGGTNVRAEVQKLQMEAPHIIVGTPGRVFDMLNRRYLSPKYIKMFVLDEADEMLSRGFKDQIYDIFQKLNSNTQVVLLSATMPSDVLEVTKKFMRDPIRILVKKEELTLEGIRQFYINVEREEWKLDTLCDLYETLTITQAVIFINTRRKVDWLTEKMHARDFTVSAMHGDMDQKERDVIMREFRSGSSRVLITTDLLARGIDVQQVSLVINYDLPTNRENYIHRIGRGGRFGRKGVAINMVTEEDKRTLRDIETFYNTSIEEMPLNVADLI
Sequence | 4-mer enrichment
AAAA | 1.34 fold
GGAU | 0.941 fold
ACAG | 0.89 fold
CUGG | 0.837 fold
CCGC | 0.593 fold
UCGA | 1.02 fold
AGGU | 1.19 fold
UCAA | 0.716 fold
CAAG | 0.998 fold
CGGG | 0.963 fold
AGAG | 3.49 fold
CAGG | 0.935 fold
UGUC | 0.69 fold
GUCC | 0.649 fold
GCGA | 1.16 fold
CGCC | 0.598 fold

Set 5 — method: EMSA with sequencing; form: double-stranded DNA, one strand shown; medium: in vitro; tested at: 10 and 20 nM; reference: negative control set to 0; direction: higher = stronger binding
Target: Hepatocyte nuclear factor 3-alpha (Foxa1, Mus musculus, UniProt P35582, residues 1-468, full length assumed)
Notes: whole designed probe, mean of two concentrations, ends assumed
Construct (chain): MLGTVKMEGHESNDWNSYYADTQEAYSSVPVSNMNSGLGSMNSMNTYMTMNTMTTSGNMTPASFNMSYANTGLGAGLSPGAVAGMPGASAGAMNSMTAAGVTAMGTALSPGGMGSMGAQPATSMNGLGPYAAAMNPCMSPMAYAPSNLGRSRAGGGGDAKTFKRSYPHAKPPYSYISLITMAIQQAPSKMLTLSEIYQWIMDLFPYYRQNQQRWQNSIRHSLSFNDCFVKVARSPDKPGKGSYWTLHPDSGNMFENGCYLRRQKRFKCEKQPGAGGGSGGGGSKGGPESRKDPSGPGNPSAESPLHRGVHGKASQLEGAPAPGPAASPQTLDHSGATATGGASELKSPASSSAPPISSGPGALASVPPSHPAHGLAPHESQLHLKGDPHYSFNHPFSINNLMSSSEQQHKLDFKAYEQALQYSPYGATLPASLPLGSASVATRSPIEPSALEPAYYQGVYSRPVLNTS
Sequence | normalised bound fraction [ratio]
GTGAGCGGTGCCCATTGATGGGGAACAAGCCTCCAGATAGAAGCCTCTGGGCTTCTTGCAGGAGTGACTTTGAGCAGAGCCATGATGTATACATGAACCATTAAGAAGCACATTCTCAGAGTAATCTGGGGTGCACAATATGAAATCTCATACTGATCACATATGCCAGTGTGATTGCAGGGTTTATTTTTAGGAGTTTCATTTGGGGATCTTTTTCCATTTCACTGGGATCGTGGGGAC | -0.0537
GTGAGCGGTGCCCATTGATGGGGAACCGGCCTGCTTGCGTGTGCAAGTCCACGGGCACACGTCCTGCCTTCATGTCTTGGACTTTAAACACCCTGGGCAGCTGGCCAGGCCTTGGTTTTGTTTGCAGAGTTGCCTAATCTAATATTGGTATTTAGCAAACAAAGCCCAAACAAGGGAGAAGTAGGCCCCTCTTGCCTCTTCTGAGCTTCCAGGGCTCTCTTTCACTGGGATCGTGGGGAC | 0.401
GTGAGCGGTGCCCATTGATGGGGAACTTTACATGATAAATCGTAATTGCTCTCAGACAGCTGTTTATAATTGGGTAAATGAGACACACTTTTAAATTGTCTAAATACATACTTACCCATGTTTACATATTTATACACTAGACTAACTATTCTCAATCAGCTGTTATCATCTATTGTGTCTTATACAGATCAAGGGAAAAGAACTTCGGAGTATAAACAGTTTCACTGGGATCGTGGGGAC | 0.308
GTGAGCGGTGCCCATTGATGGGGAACTGATGAGAAACATGATAATTATTTAGTCTGAAAGGATCTTCTCCAATAATTTTTTTTTGTCGTGATACATTCCTGACTTCTCGACGCCCAAATGCAAACAAACCTAAATTGAGGGAAATTCTATGCAATACCTAACCATTATTCATCAAATGTACACAGGAGTACAGTGACACAATCATGGTTCACTGTAACCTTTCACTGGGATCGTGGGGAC | 0.361
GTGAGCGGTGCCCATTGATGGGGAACCCTAAGAAAAACTTATTTTAGCCCAATATTTTGGCCATTTCTTACCTCTTTCTGTAGAATTTCTTCTCGAACTTCAGAAACTACGAGAGACTCTTGTTTACTCTGCAGCTCATTAACTTGACTTTGGAAATGTCTTATAAGTACCTAGGAAATTGTTAGAAGTGCTGAGTTAATAAAGCTCCTCCTTGAACACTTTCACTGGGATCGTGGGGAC | 0.279
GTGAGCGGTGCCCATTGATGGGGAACGAGGACAGAGGGGATAATTTTTCTGCCTACCATAACAATTACCCAAGTAATATACGCAAATGCACCCTGTAGATCACAAAGTATTATACGTATGTAATTTATTTCTATTAGAAAGAACAAGAAAATAATGGTTATGGTTTCACGGTTAATTAGCAGCAGAGCTCATCTCAGCCTCAGTTCTCATAATTACCTGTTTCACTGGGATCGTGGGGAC | -0.0445
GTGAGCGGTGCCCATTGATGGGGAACATCTTCCCCCTCTTCCTTGCCCCACCAGCTCACCTACGGGGGTTATTTGCACAAAGGAAAATAAATAAAGCCGGCATTCGTTAACGCAGTTCACGCGCATACTGCTGTTTGCTCTGGATCTAACATGGTCCTTTGGCGAGGCGTGGCTCCGGGAGAGCAAAGCACCGTGTCAGGGCCATGATCCGGGGTGGCCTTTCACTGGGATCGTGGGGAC | 0.388
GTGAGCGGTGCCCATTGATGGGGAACAAATTGGACACTAGGTGAAAATTCAAGCCTAATCGCTAAAGATTAAGAAAGACGCAATAACCACATTATTGGGGAAAAAAAAGCAAATCTCAGAGTAAACAGGAAGAAATGTTCTTTCTTATTTTTCCCAAAGAACCAGCTCTTTAAAATTGAGTTTTTAGATGATAATTTCATGCTTGGTAATACCCACGTGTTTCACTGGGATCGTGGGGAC | 0.0346

Some of these lines once more (set 1):
Sequence | E-score
ACCCCGGG | 0.14
ACTCAAAA | 0.0773
GTCGGATA | -0.0251
GCGATTTA | -0.0586
CCTAAGTA | -0.0655
AGGCATAT | 0.0451
AGTTGTTC | -0.174
CATCATGA | -0.105
